Results pooled from the literature.
Compare with care: the assays were run in different laboratories. ± marks the error that the study gave.
SLC6A3: Sodium-dependent dopamine transporter (SLC6A3, Homo sapiens, UniProt Q01959)
Chain of UniProt Q01959 (whole entry, unmodified, looked up): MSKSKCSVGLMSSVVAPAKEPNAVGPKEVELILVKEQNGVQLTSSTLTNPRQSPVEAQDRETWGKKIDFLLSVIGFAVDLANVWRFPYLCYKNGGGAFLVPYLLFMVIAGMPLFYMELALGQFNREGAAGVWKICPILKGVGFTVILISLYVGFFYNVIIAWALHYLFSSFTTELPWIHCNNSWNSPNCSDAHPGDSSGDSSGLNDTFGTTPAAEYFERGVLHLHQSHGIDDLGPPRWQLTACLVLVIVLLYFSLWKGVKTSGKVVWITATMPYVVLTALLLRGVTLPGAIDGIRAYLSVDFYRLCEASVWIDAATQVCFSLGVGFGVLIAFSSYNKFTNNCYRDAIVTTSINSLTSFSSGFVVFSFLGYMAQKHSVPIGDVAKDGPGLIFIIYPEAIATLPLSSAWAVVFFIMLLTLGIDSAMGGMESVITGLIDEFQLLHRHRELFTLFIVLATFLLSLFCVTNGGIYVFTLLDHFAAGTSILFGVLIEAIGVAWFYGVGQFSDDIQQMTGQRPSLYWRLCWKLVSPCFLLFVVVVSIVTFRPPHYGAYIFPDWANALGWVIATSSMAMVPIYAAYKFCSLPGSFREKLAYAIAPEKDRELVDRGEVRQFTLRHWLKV

SMILES	target	assay	test system	setting	measurement	value
CNC(C)Cc1ccc2nsnc2c1 (stereo not drawn)	SLC6A3	transporter current, whole-cell patch clamp	HEK293	holding -60 mV	EC50	4.29 µM
COc1ncccc1-c1cnn2ccc(N3CCN(C(=O)OC(C)C)CC3)nc12	SLC6A3	liability screen			IC50	29 µM
c1ccc(C(OCCN2CCNCC2)c2ccccc2)cc1	SLC6A3	binding, [3H]CFT binding inhibition	HEK293	15 min, 20 °C, together with: 130 mM Na+	Ki	0.462 ± 0.0286 µM
COc1cc2c(cc1OC)CN(CCc1ccc(NC(=O)c3cccc4c(=O)c5cccc(OC)c5[nH]c34)cc1)CC2	SLC6A3	binding			Ki	> 10 µM
CN[C@@H](C)C(=O)c1ccccc1	SLC6A3	peak current, two-electrode voltage clamp	Xenopus oocytes expressing hDAT	1 min, -60 mV	EC50	0.23 ± 0.03 µM
Cc1cccc(C)c1N1C(=O)[C@H](CC2CNc3ccccc32)NC2(CCN(C)CC2)C1=O (stereo partly drawn)	SLC6A3	binding			Ki	> 10 µM
CN1[C@@H]2CC[C@H]1C[C@@H](OC(=O)c1ccccc1)C2	SLC6A3	binding, [3H]CFT binding inhibition	HEK293	15 min, 20 °C, together with: 130 mM Na+	Ki	18.1 ± 2.98 µM
CNC(C)Cc1ccc2c(c1)OCO2 (stereo not drawn)	SLC6A3				IC50	6.2 ± 2.6 µM
CCCC(C(=O)c1ccc2c(c1)OCO2)N1CCCC1 (stereo not drawn)	SLC6A3	leak current inhibition, two-electrode voltage clamp	Xenopus oocytes	holding potential -60 mV	EC50	0.33 ± 0.07 µM
Cc1cccc(C)c1N1C(=O)[C@H](CO)NC2(CCN(C)CC2)C1=O	SLC6A3	binding			Ki	> 10 µM
CN1CCN(CCOC(c2ccccc2)c2ccccc2)CC1	SLC6A3 (Homo sapiens, UniProt Q01959, W84L)	binding, [3H]CFT binding inhibition	HEK293	15 min, 20 °C, together with: 130 mM Na+	Ki	0.335 ± 0.0094 µM
CNC(C)Cc1ccc2nonc2c1 (stereo not drawn)	SLC6A3	transporter current, whole-cell patch clamp	HEK293	holding -60 mV	EC50	3.97 µM

A few entries again:
SMILES	target	assay	test system	setting	measurement	value
CNC(C)Cc1ccc2c(c1)OCO2 (stereo not drawn)	SLC6A3				IC50	6.2 ± 2.6 µM
